Assay results collected from several papers.
Lines come from different studies, so protocols differ. Numbers after ± are the reported error.
Chain of UniProt Q12809 (whole entry, looked up): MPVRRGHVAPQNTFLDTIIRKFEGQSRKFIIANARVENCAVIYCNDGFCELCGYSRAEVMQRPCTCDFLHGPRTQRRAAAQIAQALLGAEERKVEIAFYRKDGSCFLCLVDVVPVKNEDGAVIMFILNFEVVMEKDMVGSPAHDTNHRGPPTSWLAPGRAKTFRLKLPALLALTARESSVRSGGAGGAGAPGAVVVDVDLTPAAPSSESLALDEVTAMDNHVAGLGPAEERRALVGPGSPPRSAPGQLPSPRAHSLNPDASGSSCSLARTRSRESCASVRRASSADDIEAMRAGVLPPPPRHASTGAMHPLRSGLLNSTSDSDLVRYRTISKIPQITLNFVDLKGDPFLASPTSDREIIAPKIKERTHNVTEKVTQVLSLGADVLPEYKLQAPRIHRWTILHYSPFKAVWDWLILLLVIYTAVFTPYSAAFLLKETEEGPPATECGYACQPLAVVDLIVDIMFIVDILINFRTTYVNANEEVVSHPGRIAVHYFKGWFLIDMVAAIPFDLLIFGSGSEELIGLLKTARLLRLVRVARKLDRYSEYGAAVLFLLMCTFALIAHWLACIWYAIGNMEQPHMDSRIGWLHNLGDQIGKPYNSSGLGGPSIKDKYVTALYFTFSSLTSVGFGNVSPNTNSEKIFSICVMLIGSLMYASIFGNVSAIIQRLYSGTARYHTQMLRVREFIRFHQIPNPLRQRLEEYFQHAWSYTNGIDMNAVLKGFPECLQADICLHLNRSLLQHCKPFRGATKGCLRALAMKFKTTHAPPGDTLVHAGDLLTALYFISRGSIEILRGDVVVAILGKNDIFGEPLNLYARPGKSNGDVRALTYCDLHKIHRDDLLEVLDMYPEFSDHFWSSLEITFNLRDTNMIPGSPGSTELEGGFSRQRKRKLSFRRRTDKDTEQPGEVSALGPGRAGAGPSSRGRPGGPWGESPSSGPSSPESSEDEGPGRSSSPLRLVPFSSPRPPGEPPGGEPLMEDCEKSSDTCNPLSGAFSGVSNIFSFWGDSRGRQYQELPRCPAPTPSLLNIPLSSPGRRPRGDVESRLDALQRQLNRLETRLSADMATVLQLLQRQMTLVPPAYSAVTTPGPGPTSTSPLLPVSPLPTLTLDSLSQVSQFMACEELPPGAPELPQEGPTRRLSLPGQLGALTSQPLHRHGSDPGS
Chain of UniProt Q15858 (whole entry, looked up): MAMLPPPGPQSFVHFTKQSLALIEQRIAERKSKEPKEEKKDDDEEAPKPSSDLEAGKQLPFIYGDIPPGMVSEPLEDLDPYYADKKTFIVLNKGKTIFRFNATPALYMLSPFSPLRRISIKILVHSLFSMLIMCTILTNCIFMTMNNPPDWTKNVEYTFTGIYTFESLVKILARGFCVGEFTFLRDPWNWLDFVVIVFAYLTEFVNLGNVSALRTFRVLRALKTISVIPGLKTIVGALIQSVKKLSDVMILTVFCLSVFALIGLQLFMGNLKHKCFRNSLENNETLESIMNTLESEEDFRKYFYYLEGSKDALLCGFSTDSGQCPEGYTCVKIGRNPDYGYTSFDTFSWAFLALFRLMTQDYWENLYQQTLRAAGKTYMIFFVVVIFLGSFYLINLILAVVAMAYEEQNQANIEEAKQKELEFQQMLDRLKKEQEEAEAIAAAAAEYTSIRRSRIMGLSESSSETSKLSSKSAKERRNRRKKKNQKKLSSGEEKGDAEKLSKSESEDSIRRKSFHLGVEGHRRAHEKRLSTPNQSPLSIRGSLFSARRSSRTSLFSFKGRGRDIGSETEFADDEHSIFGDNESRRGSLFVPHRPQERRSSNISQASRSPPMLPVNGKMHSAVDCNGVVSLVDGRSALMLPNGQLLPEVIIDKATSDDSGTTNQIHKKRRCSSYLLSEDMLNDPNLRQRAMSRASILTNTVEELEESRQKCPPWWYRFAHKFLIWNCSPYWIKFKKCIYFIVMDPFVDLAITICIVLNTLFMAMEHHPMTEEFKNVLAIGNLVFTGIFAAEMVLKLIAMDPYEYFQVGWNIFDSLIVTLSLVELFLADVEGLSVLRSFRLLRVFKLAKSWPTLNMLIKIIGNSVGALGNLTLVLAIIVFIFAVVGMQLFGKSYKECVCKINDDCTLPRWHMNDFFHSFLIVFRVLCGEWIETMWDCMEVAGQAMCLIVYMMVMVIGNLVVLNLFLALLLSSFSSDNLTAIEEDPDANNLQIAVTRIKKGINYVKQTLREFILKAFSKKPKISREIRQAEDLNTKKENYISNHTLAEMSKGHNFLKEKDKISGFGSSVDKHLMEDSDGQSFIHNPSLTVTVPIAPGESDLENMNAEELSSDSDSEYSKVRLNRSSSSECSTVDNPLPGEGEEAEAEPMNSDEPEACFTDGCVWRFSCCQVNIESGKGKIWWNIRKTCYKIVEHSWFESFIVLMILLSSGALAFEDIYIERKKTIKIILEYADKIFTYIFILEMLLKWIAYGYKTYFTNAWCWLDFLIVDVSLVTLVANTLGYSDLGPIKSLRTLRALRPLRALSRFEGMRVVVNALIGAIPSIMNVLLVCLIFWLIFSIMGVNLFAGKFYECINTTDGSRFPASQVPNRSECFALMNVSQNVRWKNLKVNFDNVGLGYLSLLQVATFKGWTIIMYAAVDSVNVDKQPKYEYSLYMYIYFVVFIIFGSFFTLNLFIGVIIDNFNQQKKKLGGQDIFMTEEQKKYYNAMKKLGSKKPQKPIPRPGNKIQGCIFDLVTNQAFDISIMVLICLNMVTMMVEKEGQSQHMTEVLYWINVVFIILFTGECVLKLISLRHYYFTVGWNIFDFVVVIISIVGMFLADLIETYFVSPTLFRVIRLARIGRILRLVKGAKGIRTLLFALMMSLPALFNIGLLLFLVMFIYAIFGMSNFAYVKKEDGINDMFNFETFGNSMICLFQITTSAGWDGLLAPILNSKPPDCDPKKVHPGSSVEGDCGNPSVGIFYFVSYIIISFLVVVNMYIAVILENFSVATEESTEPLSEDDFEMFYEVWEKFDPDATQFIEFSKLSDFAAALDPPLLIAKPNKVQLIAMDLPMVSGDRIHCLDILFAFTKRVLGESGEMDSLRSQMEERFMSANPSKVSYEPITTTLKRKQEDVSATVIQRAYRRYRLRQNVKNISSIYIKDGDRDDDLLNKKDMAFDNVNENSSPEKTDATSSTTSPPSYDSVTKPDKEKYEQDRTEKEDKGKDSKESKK

CC[C@H](C)[C@H](NC(=O)[C@H](CO)NC(=O)[C@H](Cc1ccc(O)cc1)NC(=O)[C@H](CC(=O)O)NC(=O)[C@H](CO)NC(=O)[C@@H](NC(=O)[C@H](Cc1ccccc1)NC(=O)[C@@H](NC(=O)CNC(=O)[C@H](CCC(=O)O)NC(=O)[C@@H](C)NC(=O)[C@@H](N)Cc1ccc(O)cc1)[C@@H](C)O)[C@@H](C)CC)C(=O)N[C@@H](C)C(=O)N[C@@H](CCSC)C(=O)N[C@@H](CC(=O)O)C(=O)N[C@@H](CCCCN)C(=O)N[C@H](C(=O)N[C@@H](Cc1c[nH]cn1)C(=O)N[C@@H](CCC(N)=O)C(=O)N[C@@H](CCC(N)=O)C(=O)N[C@@H](CC(=O)O)C(=O)N[C@@H](Cc1ccccc1)C(=O)N[C@H](C(=O)N[C@@H](CC(N)=O)C(=O)N[C@@H](Cc1c[nH]c2ccccc12)C(=O)N[C@@H](CC(C)C)C(=O)N[C@@H](CC(C)C)C(=O)N[C@@H](C)C(=O)N[C@@H](CCC(N)=O)C(=O)N[C@@H](CCCCN)C(=O)N1CCC[C@H]1C(=O)N[C@@H](CO)C(=O)N[C@@H](CO)C(=O)NCC(=O)N[C@@H](C)C(=O)N1CCC[C@H]1C(=O)N1CCC[C@H]1C(=O)N1CCC[C@H]1C(=O)N[C@@H](CO)C(N)=O)C(C)C)[C@@H](C)CC  triglycerides (HF-STZ diabetic mouse; continuous infusion, 100 nmol/kg/day, 4 weeks): 130 ± 21 mg/dL
CC[C@H](C)[C@H](NC(=O)[C@H](C)NC(=O)[C@H](CCC(=O)O)NC(=O)[C@H](CCC(=O)O)NC(=O)[C@H](CC(C)C)NC(=O)[C@H](CCCCN)NC(=O)[C@H](CCCCN)NC(=O)[C@H](CCSC)NC(=O)[C@H](CCC(=O)O)NC(=O)[C@H](Cc1ccc(O)cc1)NC(=O)[C@H](CCC(=O)O)NC(=O)[C@H](CC(C)C)NC(=O)[C@H](CC(=O)O)NC(=O)[C@H](CC(C)C)NC(=O)[C@H](Cc1ccccc1)NC(=O)[C@@H](NC(=O)[C@@H](NC(=O)[C@@H](N)CC(N)=O)C(C)C)[C@@H](C)O)C(=O)N[C@@H](CCCCN)C(=O)N[C@@H](CCCCN)C(=O)N[C@@H](CC(C)C)C(=O)N[C@@H](CCC(=O)O)C(=O)N[C@@H](CCC(=O)O)C(=O)N[C@@H](CO)C(=O)N[C@@H](Cc1ccc(O)cc1)C(=O)N[C@H](C(=O)N[C@@H](CC(=O)O)C(=O)N[C@@H](CC(C)C)C(=O)N[C@@H](CCCCN)C(=O)N[C@@H](CCC(=O)O)C(=O)N[C@@H](CC(C)C)C(=O)NCC(=O)N[C@H](C(=O)N[C@@H](Cc1ccc(O)cc1)C(=O)N[C@@H](CCC(=O)O)C(=O)N[C@@H](Cc1ccc(O)cc1)C(=O)NCC(=O)N[C@@H](CO)C(=O)NCC(=O)N[C@@H](CSCC(=O)O[C@H]1CC[C@@]2(C)C(=CC[C@H]3[C@@H]4CC[C@H]([C@H](C)CCCC(C)C)[C@@]4(C)CC[C@@H]32)C1)C(N)=O)[C@@H](C)O)[C@@H](C)CC  loss of inhibitory activity (SARS-CoV-2; pseudovirus infection; mouse serum; concentration not given): ~20%
CCCCCCCCCCCCCCCC(=O)N[C@@H](CCC(=O)NCCOCCOCCC(=O)NCCOCCOCCC(=O)NCCCC[C@H](NC(=O)[C@H](CC(=O)O)NC(=O)[C@H](CC(C)C)NC(=O)[C@H](Cc1ccc(O)cc1)NC(=O)[C@H](CCCCN)NC(=O)[C@H](CO)NC(=O)[C@H](Cc1ccc(O)cc1)NC(=O)[C@H](CC(=O)O)NC(=O)[C@H](CO)NC(=O)[C@@H](NC(=O)[C@H](Cc1ccccc1)NC(=O)[C@@H](NC(=O)CNC(=O)[C@H](CCC(N)=O)NC(=O)[C@@H](CO)NC(=O)[C@@H](N)Cc1c[nH]cn1)[C@@H](C)O)[C@@H](C)O)C(=O)N[C@@H](CCCNC(=N)N)C(=O)N[C@@H](CCCNC(=N)N)C(=O)N[C@@H](C)C(=O)N[C@@H](CCC(N)=O)C(=O)N[C@@H](CC(=O)O)C(=O)N[C@@H](Cc1ccccc1)C(=O)N[C@H](C(=O)N[C@@H](CCC(N)=O)C(=O)N[C@@H](Cc1c[nH]c2ccccc12)C(=O)N[C@@H](CC(C)C)C(=O)N[C@@H](CC(C)C)C(=O)N[C@@H](CC(N)=O)C(=O)N[C@H](C(=O)NCC(=O)NCC(=O)N1CCC[C@H]1C(=O)N[C@@H](CO)C(=O)N[C@@H](CO)C(=O)NCC(=O)N[C@@H](C)C(=O)N1CCC[C@H]1C(=O)N1CCC[C@H]1C(=O)N1CCC[C@H]1C(=O)N[C@@H](CO)C(N)=O)[C@@H](C)O)C(C)C)C(=O)O  serum enzyme activity (refers to: CK; Sprague-Dawley rat, female; subcutaneous, 100 µg/kg once daily, 14 days): 752 ± 440 U/L
CC[C@H](C)[C@H](NC(=O)[C@H](CCCCN)NC(=O)[C@H](CCCCN)NC(=O)[C@H](CC(C)C)NC(=O)[C@H](Cc1c[nH]c2ccccc12)NC(=O)CN)C(=O)NCC(=O)N[C@@H](CCCCN)C(=O)N[C@@H](CCCCN)C(=O)N[C@H](C(=O)N[C@@H](CCC(=O)O)C(=O)N[C@@H](CCCNC(=N)N)C(=O)N[C@H](C(=O)NCC(=O)N[C@@H](CCC(N)=O)C(=O)N[C@@H](Cc1c[nH]cn1)C(=O)N[C@H](C(=O)N[C@@H](CCCNC(=N)N)C(=O)N[C@@H](CC(=O)O)C(=O)N[C@@H](C)C(=O)N[C@H](C(=O)N[C@H](C(=O)N[C@@H](CCC(N)=O)C(=O)N[C@H](C(=O)N[C@H](C(=O)NCC(=O)N[C@H](C(=O)N[C@@H](C)C(=O)N[C@@H](CCC(N)=O)C(=O)N[C@@H](CCC(N)=O)C(=O)N[C@@H](C)C(=O)N[C@@H](C)C(=O)N[C@@H](CC(N)=O)C(=O)N[C@H](C(=O)N[C@@H](C)C(=O)N[C@@H](C)C(=O)N[C@H](C(=O)N[C@@H](CC(C)C)C(=O)N[C@@H](CCCCN)C(N)=O)[C@@H](C)O)C(C)C)C(C)C)[C@@H](C)CC)[C@@H](C)O)[C@@H](C)CC)[C@@H](C)O)[C@@H](C)O)C(C)C)[C@@H](C)CC  highest inactive concentration (Voltage-gated inwardly rectifying potassium channel KCNH2 (KCNH2, Homo sapiens, UniProt Q12809); potassium current, automated patch clamp): > 30 µM
CCCCCCCCCCCCCCCC(=O)N[C@@H](CCC(=O)NCCCC[C@H](NC(=O)[C@H](CC(=O)O)NC(=O)[C@H](CO)NC(=O)[C@@H](NC(=O)[C@H](Cc1ccccc1)NC(=O)[C@@H](NC(=O)CNC(=O)[C@H](CCC(N)=O)NC(=O)[C@H](C)NC(=O)[C@@H](Cc1ccc(O)cc1)NC(C)=O)[C@@H](C)O)[C@@H](C)O)C(=O)N[C@@H](CO)C(=O)N[C@@H](CCCCN)C(=O)N[C@@H](Cc1ccc(O)cc1)C(=O)N[C@@H](CC(C)C)C(=O)N[C@@H](CC(=O)O)C(=O)N[C@@H](CCC(=O)O)C(=O)N[C@@H](CCCNC(=N)N)C(=O)N[C@@H](C)C(=O)N[C@@H](C)C(=O)N[C@@H](CCC(N)=O)C(=O)N[C@@H](CC(=O)O)C(=O)N[C@@H](Cc1ccccc1)C(=O)N[C@H](C(=O)N[C@@H](CCC(N)=O)C(=O)N[C@@H](Cc1c[nH]c2ccccc12)C(=O)N[C@@H](CC(C)C)C(=O)N[C@@H](CC(C)C)C(=O)N[C@@H](CCC(=O)O)C(=O)NCC(=O)NCC(=O)N1CCC[C@H]1C(=O)N[C@@H](CO)C(=O)N[C@@H](CO)C(=O)NCC(=O)N[C@@H](C)C(=O)N1CCC[C@H]1C(=O)N1CCC[C@H]1C(=O)N1CCC[C@H]1C(=O)N[C@@H](CO)C(N)=O)C(C)C)C(=O)O  half-life (cynomolgus monkey, plasma; intravenous, 0.0031 mg/kg): 3.47 to 3.56 h
CCc1ccccc1NC(=S)N/N=C/c1ccc(O)cc1O  viability (MCF7; 100 µM): > 85%
CC(C)C[C@@H]1NC(=O)[C@H](CCCNC(=N)N)NC(=O)[C@@H]2CCCN2C(=O)[C@@H]2CSSC[C@H](NC(=O)CNC(=O)[C@@H]3CCCN3C(=O)[C@H](CCCCN)NC(=O)[C@H](CC(=O)O)NC(=O)[C@@H](NC(=O)CN)C(C)C)C(=O)N[C@@H](CCCNC(=N)N)C(=O)N[C@@H](Cc3ccc(O)cc3)C(=O)N[C@@H](CC(C)C)C(=O)N[C@@H](Cc3ccccc3)C(=O)NCC(=O)NCC(=O)N[C@H]3CSSC[C@H](NC(=O)CNC1=O)C(=O)N[C@@H](CCCCN)C(=O)NCC(=O)N[C@@H](CCCCN)C(=O)NCC(=O)N[C@@H](Cc1c[nH]cn1)C(=O)N[C@@H](CC(=O)O)C(=O)N[C@@H](Cc1ccc(O)cc1)C(=O)N[C@H](C(=O)N[C@@H](C)C(=O)N[C@@H](Cc1c[nH]c4ccccc14)C(=O)N[C@@H](CC(=O)O)C(=O)NCC(=O)N[C@H](C(=O)N[C@@H](Cc1ccccc1)C(=O)N[C@@H](CO)C(=O)N[C@@H](CC(=O)O)C(=O)O)[C@@H](C)O)CSSC[C@H](NC(=O)[C@H](CC(=O)O)NC(=O)[C@H](CC(=O)O)NC(=O)[C@H](CC(=O)O)NC(=O)[C@H](CO)NC(=O)[C@H](CCCCN)NC3=O)C(=O)N2  steady-state inactivation V0.5 (Sodium channel protein type 9 subunit alpha (SCN9A, Homo sapiens, UniProt Q15858); manual patch clamp; HEK293; 1 µM): -76.5 ± 0.4 mV
CC[C@H](C)[C@H](NC(=O)CNC(=O)[C@H](C)NC(=O)[C@H](CCC(=O)O)NC(=O)[C@@H]1CCCN1C(=O)[C@H](CC(=O)O)NC(=O)[C@H](C)NC(=O)[C@H](CCC(=O)O)NC(=O)[C@H](C)N)C(=O)NCC(=O)N[C@@H](C)C(=O)N[C@H](C(=O)N[C@@H](CC(C)C)C(=O)N[C@@H](CCCCN)C(=O)N[C@H](C(=O)N[C@@H](CC(C)C)C(=O)N[C@H](C(=O)N[C@H](C(=O)NCC(=O)N[C@@H](CC(C)C)C(=O)N1CCC[C@H]1C(=O)N[C@@H](C)C(=O)N[C@@H](CC(C)C)C(=O)N[C@H](C(=O)N[C@@H](CO)C(=O)N[C@@H](Cc1c[nH]c2ccccc12)C(=O)N[C@H](C(=O)N[C@@H](CCCCN)C(=O)N[C@@H](CCCNC(=N)N)C(=O)N[C@@H](CCCCN)C(=O)N[C@@H](CCCNC(=N)N)C(=O)N[C@@H](CCC(N)=O)C(=O)N[C@@H](CCC(N)=O)C(N)=O)[C@@H](C)CC)[C@@H](C)CC)[C@@H](C)O)[C@@H](C)O)C(C)C)C(C)C  HD50 (human erythrocytes, washed; 1 h, 37 °C, 2% v/v RBC suspension): 11.8 ± 0.6 µmol/L
CC[C@H](C)[C@H](NC(=O)[C@H](CCCN)NC(=O)[C@H](CC(=O)O)NC(=O)[C@H](CC(C)C)NC(=O)C(C)(CC(C)C)NC(=O)[C@@H](NC(=O)[C@H](CO)NC(=O)[C@H](Cc1ccc(O)cc1)NC(=O)[C@H](CC(=O)O)NC(=O)[C@H](CO)NC(=O)[C@@H](NC(=O)[C@H](Cc1ccccc1)NC(=O)[C@@H](NC(=O)CNC(=O)[C@H](CCC(=O)O)NC(=O)C(C)(C)NC(=O)[C@@H](N)Cc1ccc(O)cc1)[C@@H](C)O)[C@@H](C)CC)[C@@H](C)CC)C(=O)N[C@@H](Cc1c[nH]cn1)C(=O)N[C@@H](CCC(N)=O)C(=O)NC(C)(C)C(=O)N[C@@H](CC(=O)O)C(=O)N[C@@H](Cc1ccccc1)C(=O)N[C@H](C(=O)N[C@@H](CCC(=O)O)C(=O)N[C@@H](Cc1ccc(O)cc1)C(=O)N[C@@H](CCCCNC(=O)COCCOCCNC(=O)COCCOCCNC(=O)CC[C@H](NC(=O)CCCCCCCCCCCCCCCCCCC(=O)O)C(=O)O)C(=O)N[C@@H](CC(C)C)C(=O)N[C@@H](CCC(=O)O)C(=O)NCC(=O)NCC(=O)N1CCC[C@H]1C(=O)N[C@@H](CO)C(=O)N[C@@H](CO)C(=O)NCC(=O)N[C@@H](C)C(=O)N1CCC[C@H]1C(=O)N1CCC[C@H]1C(=O)N1CCC[C@H]1C(=O)N[C@@H](CO)C(N)=O)C(C)C (stereo partly drawn)  AUC(0-inf) (human, plasma; subcutaneous, 25 mg, single dose, healthy volunteers): 1280 µg·h/mL

For quick reference, copied from above:
CC[C@H](C)[C@H](NC(=O)[C@H](CCCCN)NC(=O)[C@H](CCCCN)NC(=O)[C@H](CC(C)C)NC(=O)[C@H](Cc1c[nH]c2ccccc12)NC(=O)CN)C(=O)NCC(=O)N[C@@H](CCCCN)C(=O)N[C@@H](CCCCN)C(=O)N[C@H](C(=O)N[C@@H](CCC(=O)O)C(=O)N[C@@H](CCCNC(=N)N)C(=O)N[C@H](C(=O)NCC(=O)N[C@@H](CCC(N)=O)C(=O)N[C@@H](Cc1c[nH]cn1)C(=O)N[C@H](C(=O)N[C@@H](CCCNC(=N)N)C(=O)N[C@@H](CC(=O)O)C(=O)N[C@@H](C)C(=O)N[C@H](C(=O)N[C@H](C(=O)N[C@@H](CCC(N)=O)C(=O)N[C@H](C(=O)N[C@H](C(=O)NCC(=O)N[C@H](C(=O)N[C@@H](C)C(=O)N[C@@H](CCC(N)=O)C(=O)N[C@@H](CCC(N)=O)C(=O)N[C@@H](C)C(=O)N[C@@H](C)C(=O)N[C@@H](CC(N)=O)C(=O)N[C@H](C(=O)N[C@@H](C)C(=O)N[C@@H](C)C(=O)N[C@H](C(=O)N[C@@H](CC(C)C)C(=O)N[C@@H](CCCCN)C(N)=O)[C@@H](C)O)C(C)C)C(C)C)[C@@H](C)CC)[C@@H](C)O)[C@@H](C)CC)[C@@H](C)O)[C@@H](C)O)C(C)C)[C@@H](C)CC  highest inactive concentration (Voltage-gated inwardly rectifying potassium channel KCNH2 (KCNH2, Homo sapiens, UniProt Q12809); potassium current, automated patch clamp): > 30 µM
